Experimental data pooled from the literature.
Numbered parts are unrelated; each lists some results of a single study. Changes are numbered by the printed parent chain.

Block 1
Target: Ras GTPase-activating protein-binding protein 1, C-terminal RGG region (G3BP1, Homo sapiens, UniProt Q13283)
Chain of UniProt Q13283 (whole entry, looked up): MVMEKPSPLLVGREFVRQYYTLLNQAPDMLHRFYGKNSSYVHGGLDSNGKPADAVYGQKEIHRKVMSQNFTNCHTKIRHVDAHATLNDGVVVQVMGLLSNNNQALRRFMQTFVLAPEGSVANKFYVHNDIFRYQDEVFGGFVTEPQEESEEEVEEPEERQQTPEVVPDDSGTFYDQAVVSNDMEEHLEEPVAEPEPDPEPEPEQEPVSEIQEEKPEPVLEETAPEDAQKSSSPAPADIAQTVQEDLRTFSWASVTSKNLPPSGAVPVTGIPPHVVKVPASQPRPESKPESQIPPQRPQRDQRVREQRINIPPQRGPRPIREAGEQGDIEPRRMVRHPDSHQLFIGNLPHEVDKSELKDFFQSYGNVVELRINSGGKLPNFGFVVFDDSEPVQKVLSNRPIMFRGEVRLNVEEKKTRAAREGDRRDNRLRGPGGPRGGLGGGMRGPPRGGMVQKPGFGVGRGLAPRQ
Method: RNA Bind-n-Seq
Molecule type: RNA
Sample: in vitro
Tested at: 1 µM
Notes: whole 134-nt RNA, ends assumed
Added: 150 mM KCl
Reference: input library
Reading: higher = stronger binding
Quantity: log2 enrichment
All sequences stand within: GGGAGUUCUACAGUCCGACGAUC … UGGAAUUCUCGGGUGUCAAGG
GCAGGAAGUAAAAACAAAUGGAAAUGCUUCGGAUAGUGGCAGGGGUGGGGGUUGCUAAGGAAAGGGUGGGAUGGGAGUGGGUAAAGACUU: 0.454
CAAGUCCUGUGCUACACAUCGUAUGUACCGAAUCGGGGUUUGGGGAGGGGAGGGGAAAGUAUUAUGUUACGCCGUUCGGAUCUGCACUUC: 2.76
UCCUGUGCUACACAUCGUAUGUACCGAAUCGGCCCCCCGGCCCCCCGGGGCCCCCCGGGGAAAGUAUUAUGUUACGCCGUUCGGAUCUGC: -1.27
GCAGGAAGUAAAAACAAAUGGAAAUGCUUCGGAUAGUGGCACGGGUGGGGGUUGCUAAGGAAAGGGUGGGAUGGGAGUGGGUAAAGAGUU: 1.08
UCCUGUGCUACACAUCGUAUGUACCGAAUCGGGGUUUUUUUGGGGUGGGGUUUUUGGGGAAAGUAUUAUGUUACGCCGUUCGGAUCUGCA: 1.55
AAGUCCUGUGCUACACAUCGUAUGUACCGAAUCGGUUUUUGGAAAAAGGAAAAAGGAAAGUAUUAUGUUACGCCGUUCGGAUCUGCACUU: -2.08
GCAGGAAGUAAAAACAAAUGGAAAUGCUUCGGAUAGUGGCAGGGGUGGGGGUUGCUAAGGAAAGGGUGGGAUCGGAGUGGGUAAAGAGUU: 1.71
CCUGUGCUACACAUCGUAUGUACCGAAUCGGCCCCCCCGGGCCCCCCCGGGCCCCCCCGGAAAGUAUUAUGUUACGCCGUUCGGAUCUGC: -1.52
CACAGACAACACGCACCCACACAGACACAGAGGGAAGGGGUUGGGAUGGGGACAGGGUGCAAAACAGGGCGGGGUAGGACCCCAGCCCCU: -0.267
AAGUCCUGUGCUACACAUCGUAUGUACCGAAUCGGGGUGGGGAGGGGAAAAAGGGGAAAGUAUUAUGUUACGCCGUUCGGAUCUGCACUU: 1.87
CUCAAGUCCUGUGCUACACAUCGUAUGUACCGAAUCGGCCGGGGCCGGGGCCGGAAAGUAUUAUGUUACGCCGUUCGGAUCUGCACUUCC: -1.75
UGGGAGGUGGAUUUUGUUUAUUUUUUUAGCUCAUUUCCAGGGGUGGGAAUUUUUUUUUAAUAUGUGUCAUGAAUAAAGUUGUCUUUGAAA: 3.79
GGACACAGCUUGGGCUAUGGCUUUGUGAACUACGUGACCGCGAAGGAUGCAGAGAGAGCGAUCAACACGCUGAACGGCUUGAGGCUCCAG: -1.97
AGUCCUGUGCUACACAUCGUAUGUACCGAAUCGGGAAAAAGGAAAAAGGGAAAAAGGGAAAGUAUUAUGUUACGCCGUUCGGAUCUGCAC: -1.8

Block 2
Target: CCNB2, cyclin fold, Cln2 fusion (human)
Method: yeast growth competition, sequencing
Sample: yeast
Notes: weak parent motif
Reference: not given
Reading: higher = stronger binding
Quantity: normalised enrichment score
Parent: PKN2 docking peptide (human); VSAVRKLDFSDTM
F9K: 0.186
R5H: -0.292
S2T: 0.601
D11M: -0.152
R5P: -0.212
L7N: 0.342
A3P: 0.486
S10I: -0.0191
L7S: 0.331
K6R: 0.971
F9V: 0.21
F9D: -0.0826
L7Q: 0.0294
V4E: -0.335
V4D: -0.287
T12H: 0.526
D8W: -0.0544

Block 3
Target: Sox, HMG box (Pigoraptor chileana)
Method: Spec-seq
Molecule type: double-stranded DNA, one strand shown
Sample: in vitro
Tested at: not given
Notes: whole probe, mean of replicates
Reference: not given
Reading: lower = stronger binding
Quantity: relative binding energy
All sequences stand within: GAGTCGTCTCGTCAGCAC … CCGTAGAGCACTCAGGTC
Residues (chain): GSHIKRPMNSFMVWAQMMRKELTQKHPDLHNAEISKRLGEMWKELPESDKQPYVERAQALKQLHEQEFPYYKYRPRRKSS
CATCGTT: 0.56 ln ratio
CATCCGA: 0.706 ln ratio
TCTTGTT: -2.03 ln ratio
TCACGTT: 0.959 ln ratio
TTCGGTT: 0.709 ln ratio
GAACGTT: 1.36 ln ratio
CATGTCT: 0.771 ln ratio
CATTCCC: 0.905 ln ratio
AAGTGTT: -1.75 ln ratio
TAGCGTT: 0.835 ln ratio
CATTCGC: 0.735 ln ratio
CATGGCT: 0.683 ln ratio
CTTTGTT: -2.99 ln ratio
CATATTC: 0.261 ln ratio
CATTTTG: 0.421 ln ratio
CATAAAG: -0.964 ln ratio
CATTATA: -1.81 ln ratio
CATCACC: 0.482 ln ratio
CTATGTT: -0.519 ln ratio
GTGGGTT: 1.21 ln ratio

Block 4
Target: Histone acetyltransferase KAT6A, winged helix 1, GST fusion (KAT6A, Homo sapiens, UniProt Q92794, residues 1-85)
Method: protein binding microarray
Molecule type: double-stranded DNA, one strand shown
Sample: in vitro
Tested at: not given
Notes: 8-mer, flanks averaged, mean of 2 arrays, mostly near background
Reference: not given
Reading: higher = stronger binding
Quantity: E-score
Residues (chain): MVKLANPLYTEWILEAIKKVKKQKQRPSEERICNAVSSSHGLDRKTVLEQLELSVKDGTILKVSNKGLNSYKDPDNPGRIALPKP
CTGAAAAC: -0.0286
GGCCTGGA: -0.0838
GTATTCAA: -0.0417
ACTGCATC: -0.248
TAGTCCCA: -0.17
ATTTTCAA: -0.219
TCATTCCA: -0.0623
GCGACACA: 0.0961
CGACGAAC: 0.153
CGACACAA: -0.169
GCAGAAGC: 0.0918
AGAAATCG: -0.214
CACTACGA: -0.0945
CCCAGCGG: 0.125
CAGATGCC: -0.101
ATCCCGGG: 0.353
AATCTCGA: -0.121
CAAACTAG: -0.124
ACAGGCCC: -0.0254
ATTTGAGG: -0.21

Block 5
Target: RNA binding protein fox-1 homolog 2, RRM domain, GST-SBP tag (RBFOX2, Homo sapiens, UniProt O43251-10, residues 100-194)
Method: RNA Bind-n-Seq
Molecule type: RNA
Sample: in vitro
Tested at: 365 nM
Notes: natural RNA segment, single round, ends assumed
Reference: no-protein control
Reading: higher = stronger binding
Quantity: RBNS enrichment (R)
All sequences stand within: GGGAGUUCUACAGUCCGACGAUC … UGGAAUUCUCGGGUGCCAA
Residues (chain): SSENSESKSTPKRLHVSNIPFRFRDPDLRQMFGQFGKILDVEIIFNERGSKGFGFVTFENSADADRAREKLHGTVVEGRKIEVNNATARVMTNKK
UGGAUGCUUAAAAAGUAAGUGCUUGGAUUUAACCCUAAAGUGGUUUGAAAUUGGGAAGAAGUGUGACAGGAUACAGUUGGGCUAAUUAUGCAAUAUUUCAUCUGUUUAAU: 0.933
AGUUUUCUUCAUUGUGCACACAGGACAAAUCUGAUCUCUUUGGGAAAAAAUAGAAAUAAAACAAUCUCCCUCCAUAAUGUGAGCAAUAUUACCUCGUGCAUUGUAUAAUU: 2.07
GUCCCCUUGUAGCAUAUGCAUUAUGUCAUCUGAAUUGAGGCCUUUCUGUGAACAGCAUCAUAACUUCUAUCAUGGAAAGUGUACUAUAUAUAAUGUUUGUGUCAUGUAUA: 0.474
GCCACAGCCAUAGUGACUGCAUGAGCCAUCUGAACCUGCAGUCCACCCUCCCUGGAACCACACCAGAAAGAGACCUGGGUUGUCGUUUUCUUGCUUUUUGUUUUGUUUUG: 2.39
GAACAAGUUUGUUUUGCCUGAUACAGUAUUAUAAUUGGUUUUGUAACUUUGAAGUCUUGUAUGAUUUAAUUAUGUUUAAUGAGUUAGAAUGGUUUGCUUUGUAUUACAGA: 1.66
CAAGUAUUAAGAUAAUUUGUACAUGUAGAGAAAAAAAUGACUUUUUCAUAAUAUACAGGGGCAGCUGCCAAAUUGAUGUAUUAUAAUAUUGUGGUUUCUGUUUCUUGAGA: 0.772
GCUCAGGCAGACAAAUCGCUCUAGCUCAGAAGUUGCAGAGCAGCCUGGGCAACAUGGUGAAACCCGUCUCUACCAAACAGACAAAAAGCAGCCAGGCGUGGUGGCACAUC: 0.486
UUUGACCACUGUGAUCCAGAAGAGAGGUGCACUACGUGGGAAGUGCUGAUUCCACAGCAUGCAGCCUGGUAGGGGAAGGAAAAUAAAAGGGUGUGAAGAAGGAAUAGUUU: 2.7
GUCAUUUCAAAGAUUUACUGUAUGUAUAGUUGAUUUUGUGGACUGAAUUUAAUGCUUCCAAAUGUUUGCAGUUACCAAACAUUGUUAUGCAAGAAAUCAUAAAAUGAAGA: 2.12
GAUGGACCUCUUUAUAAAGUUGGUUGCUGCAAAAUCCAGUUCUUCCAAAAGCCACUUUAUUUAGGGUUUAUUCACAAGUCAUAUCCAUUUUGGUACAGUGUUUGUUUCCU: 0.531
CACUCCUGCUGGAUGUCCAGGCGGCCUUGGGAGGCCCAGCCCUGGGCCUGCCUGGGGCUUUAACCAUUUAUAGCACUCCUGAGAGCCGGACUGCCUCCUACUUGGGCCCG: 0.245
UAGAGCUCCUGGCGCCCUCCCCUGGCCUCCAGAAGCUCAGGUGCACUUGAUGGUGGUUUCCUGUGUUCCUGUGGCGCUGCUCCUGGGGGGAAGAGUGUGCUCUAGCAGGC: 0.497

Excerpt of the above (block 4):
CTGAAAAC: -0.0286
CACTACGA: -0.0945
AGAAATCG: -0.214
CGACACAA: -0.169
AATCTCGA: -0.121
GTATTCAA: -0.0417
ACTGCATC: -0.248
ATCCCGGG: 0.353
GGCCTGGA: -0.0838
